Published values from different studies.
Every numbered part comes from another study and shows a few of its results, in no order. Positions count from the first letter of the parent shown.

Series 1
Target: RING finger protein unkempt homolog, zinc fingers 1-6, GST-SBP tag (UNK, Homo sapiens, UniProt Q9C0B0, residues 30-357)
Sequence of UniProt Q9C0B0 (30-357, looked up): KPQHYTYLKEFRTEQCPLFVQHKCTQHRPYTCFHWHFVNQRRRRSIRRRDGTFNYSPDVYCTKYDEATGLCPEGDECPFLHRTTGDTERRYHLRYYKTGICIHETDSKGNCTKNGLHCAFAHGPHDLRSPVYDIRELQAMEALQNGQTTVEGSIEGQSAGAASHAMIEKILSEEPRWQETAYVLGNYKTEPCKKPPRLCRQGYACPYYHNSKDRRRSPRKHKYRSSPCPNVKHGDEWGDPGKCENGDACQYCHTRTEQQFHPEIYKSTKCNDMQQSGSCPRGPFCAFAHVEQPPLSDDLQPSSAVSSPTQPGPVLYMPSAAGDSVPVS
Method: RNA Bind-n-Seq
Molecule type: RNA
Matrix: in vitro
Concentration: not given
Setting: RNA with constant flanks, human-mouse chimeric sites, ends assumed
Baseline: input RNA pool
Direction: higher = stronger binding
All sequences stand within: GGGAGUUCUACAGUCCGACGAUC … CAACAGAGGAUUGAGCAUCA
| Strand | bound/input enrichment [ratio] |
| --- | --- |
| AUGGAGAAGGAUUCUCUGCCCCGCUUUGUGCGCUCUGAAUUUUAUAAGGAGUUAAUCAAGUAGUCAUCUGGUCAGGCUUCCAAAAGUUGCCCUGUGAGUUGAGUUACAUCCUUUGUAGCA | 0.192 |
| CUAAUCCCCUUCGUUGCUCCCCCACUUCUCAUGGUAAUAACAAAGUCUUAUAUCCCCGUCCUAGCUUUCACUCAGAUGGCUUAUGGAGCCGGUUUCCUAGCUUUCUUGGGAGGGAUCAGA | 0.196 |
| ACCAUUUUCGCGGUUCAGGCUUUGUGUGUAGUUCACUUACGGUAUUAAAUUAUUAUUCUGCUUAGCUUAUAAUAAGGAUAAUUGCAUGAUUUAAGUAUACUGAAUGUUACUCUGAAACUU | 0.384 |
| CUGGCCUGGCCCUCCCCAGGGGCCUCCUUUCGUAUAGUCACUGCUUCUGCAUCAGAUACUUUCAGCUGCAACUCCCUGCAGGGUGGGGCACCCAUUUCAGGCAGAAGGUUUUGGUACCCU | 0.334 |
| GUAGCUGGGACUACAGAAAUGCUGGUAAUUUCAGUCACUUGCUGAUGACUUCUGAUGUCCCAGCAAAUGUUGGCAUUCACUGCAAUAGAGAAGAUACUUCUGAGGACAUACAGCAGUGGU | 0.333 |
| GGCCUGGGACCGUCCUGGGCUAGUACAAAUAGCGGCAGUGGAGGCUCGAGAGGAAAGUUUGUUAGUGAGGCAGUGGUUAGAGGCCGUCAUGUACGGUCUUUACACGAAUAGAUGUGUUCU | 0.755 |
| ACCUCCCCCUCCCGCCUCACCCCACCCCCGCUUUUUGGAAAGUUUUUGGCUUUUUUUUUUUUUAGAAAUACAAAGUGAUUACAGUUUCCCCCGCAAGGGUCUAUCGAAGGGCUUGACGGA | 1.32 |
| ACAGUUAUAUUGUUGAGGUUUGUAUUUAUAUAUUCUUAUGGUGUCUGCUUGCCUGUGACUUCUGGUAAAAUAAAAUAAGCCUUUGAAAAUAUUUUAGCAUGGUAUUUAACAUUUUCUAAA | 1.83 |

Series 2
Target: CCNA1, cyclin fold, Cln2 fusion (human)
Method: yeast growth competition, sequencing
Matrix: yeast
Setting: weak parent motif
Baseline: not given
Direction: higher = stronger binding
Parent: BRCA2 docking peptide (human); PSIKRNLLNEFDR
| Change | normalised enrichment score |
| --- | --- |
| R5L | -0.0611 |
| P1L | 0.527 |
| D12V | 0.68 |
| E10H | 0.201 |
| L8F | 0.541 |
| F11D | 0.339 |
| R13A | 0.733 |
| I3N | 0.212 |
| N9T | 0.736 |
| N6M | 0.15 |
| R5N | -0.116 |
| D12Q | 0.97 |
| S2P | 0.189 |
| D12M | 0.684 |
| D12Y | 0.464 |
| N6E | 0.534 |
| S2D | 0.45 |
| N6F | 0.398 |
| K4H | 0.466 |

Series 3
Target: PABPC1L2, full length, GST fusion (mouse, UniProt A0ABA7IW68)
Method: RNAcompete
Molecule type: RNA
Matrix: in vitro
Concentration: 20 nM
Setting: 7-mer, probes averaged, single round
Baseline: mean of 7-mers
Direction: higher = stronger binding
Construct (chain): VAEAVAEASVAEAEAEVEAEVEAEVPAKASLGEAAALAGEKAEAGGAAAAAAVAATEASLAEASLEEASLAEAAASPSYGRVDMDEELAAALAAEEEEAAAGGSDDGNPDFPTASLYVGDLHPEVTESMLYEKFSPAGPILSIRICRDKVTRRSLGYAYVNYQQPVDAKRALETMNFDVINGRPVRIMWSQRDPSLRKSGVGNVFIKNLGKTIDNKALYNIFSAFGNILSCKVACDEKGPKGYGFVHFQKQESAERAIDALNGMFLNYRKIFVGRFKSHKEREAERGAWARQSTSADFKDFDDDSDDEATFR
| Strand | 7-mer Z-score |
| --- | --- |
| CACAUAU | -0.237 |
| AAUCGGA | 0.28 |
| CCCGAAU | -0.219 |
| CUAUAGA | -0.0192 |
| GUGAUAA | 0.187 |
| UCCGCCA | -0.409 |
| UAGCUAC | -0.324 |
| GCGAAAC | 0.1 |
| ACAGGUU | -0.00289 |
| AUUGUGC | -0.258 |
| UAAAAGA | 3.63 |
| CGAUAUA | -0.0917 |
| GCUGCGA | -0.0591 |
| UCCAUUU | -0.19 |
| AUAUCUU | -0.0953 |
| GUUUUAC | -0.3 |
| AUUGAUU | -0.146 |
| GCUGUUU | -0.445 |
| CCUAAGG | -0.253 |
| UCAUGAA | 0.157 |
| UGAGCAU | -0.11 |

Series 4
Target: Histone acetyltransferase KAT6A, both winged helices, GST fusion (KAT6A, Homo sapiens, UniProt Q92794, residues 1-181)
Method: protein binding microarray
Molecule type: double-stranded DNA, one strand shown
Matrix: in vitro
Concentration: not given
Setting: 8-mer, flanks averaged, mean of 2 arrays, mostly near background
Baseline: not given
Direction: higher = stronger binding
Residues (chain): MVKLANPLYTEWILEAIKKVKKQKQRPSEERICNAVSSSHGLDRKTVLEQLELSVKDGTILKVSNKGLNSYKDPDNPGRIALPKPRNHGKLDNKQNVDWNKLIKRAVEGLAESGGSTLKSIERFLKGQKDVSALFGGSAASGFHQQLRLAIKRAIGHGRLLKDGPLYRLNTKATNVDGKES
| Strand | E-score |
| --- | --- |
| ATCGTCAG | -0.176 |
| AAGAGTGT | -0.175 |
| CTAGCAAA | -0.088 |
| CCTCAGAA | -0.0888 |
| CATTCCAA | -0.0378 |
| CAAACTCA | -0.0693 |
| CACACGAA | 0.0151 |
| GGTTAACC | -0.0223 |
| CCACGCCA | -0.215 |
| CCCTTTCC | -0.00346 |
| CGGGGGGA | -0.0851 |
| GTCAGGTA | 0.037 |
| GGAGAGAA | -0.144 |
| ACAGTTAA | 0.00965 |

Series 5
Target: ABI1, truncated, D143A, DHFR fusion (Arabidopsis thaliana)
Method: DHFR PCA, deep sequencing
Matrix: yeast
Setting: methotrexate growth selection, single substitutions
With: (+)-ABA 0 µM
Baseline: wild-type fitted maximum
Direction: higher = stronger binding
Parent: PYL1, truncated, DHFR fusion (Arabidopsis thaliana); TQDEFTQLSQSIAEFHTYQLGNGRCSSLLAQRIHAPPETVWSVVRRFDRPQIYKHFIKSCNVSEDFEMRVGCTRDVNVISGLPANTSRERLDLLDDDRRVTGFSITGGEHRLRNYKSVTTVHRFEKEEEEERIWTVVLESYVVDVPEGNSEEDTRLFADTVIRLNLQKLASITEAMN; partner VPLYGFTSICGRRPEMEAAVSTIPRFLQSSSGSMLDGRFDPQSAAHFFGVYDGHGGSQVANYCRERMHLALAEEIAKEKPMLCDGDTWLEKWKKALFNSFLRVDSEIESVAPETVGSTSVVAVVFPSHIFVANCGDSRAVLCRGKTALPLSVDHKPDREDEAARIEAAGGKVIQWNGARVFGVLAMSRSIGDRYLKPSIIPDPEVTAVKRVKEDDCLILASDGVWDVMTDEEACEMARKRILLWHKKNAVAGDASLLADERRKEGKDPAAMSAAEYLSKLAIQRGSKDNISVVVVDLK
| Change | relative binding score [%] |
| --- | --- |
| Q51I | -13.1 |
| T120V | -3.59 |
| L156I | 0.891 |
| T160R | -1.73 |
| D75Q | 27 |
| E14F | 3.72 |
| N85P | 7.13 |
| A13G | 7.37 |
| F157I | 4.12 |
| T135E | -6.79 |
| R69F | 1.16 |
| A30V | 10.3 |
| T135A | -6.7 |
| E129T | 22.1 |
| G23Y | 2.76 |

Series 6
Target: RNA binding protein fox-1 homolog 2, RRM domain, GST-SBP tag (RBFOX2, Homo sapiens, UniProt O43251-10, residues 100-194)
Method: RNA Bind-n-Seq
Molecule type: RNA
Matrix: in vitro
Concentration: 365 nM
Setting: natural RNA segment, single round, ends assumed
Baseline: no-protein control
Direction: higher = stronger binding
All sequences stand within: GGGAGUUCUACAGUCCGACGAUC … UGGAAUUCUCGGGUGCCAA
Target sequence (chain): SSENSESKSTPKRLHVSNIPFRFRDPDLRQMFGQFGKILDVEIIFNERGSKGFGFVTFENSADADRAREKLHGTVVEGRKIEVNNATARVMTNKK
| Strand | RBNS enrichment (R) |
| --- | --- |
| GGAAGGGGCCCUGAAGAUUAAGCUUCCUUAGCGUCACAAUAAGUCCGUAUCUGGUUGCAAUUGAAAACUGAUGCUUCAGUGAGGGUAUCUAAAAAGGUAAACUGGCAUAU | 0.467 |
| AGGCUAUGUACCUCGAAGGGAGGGCCUGGGGGACAAUGUUACCGAGAGGAGAAUGUGAGCACAUUUGACUGACACGGCCUGGAACCCAGUGCAUCUUUUCACGGCACUGC | 4.38 |
| GCACACACACAAGUGCCCAGGCAAGGUGCUUGGCAGAACCGCAGAGUGGGAAGAGAGUACCGGCAUCGGGUUUCCUUGGGAUCAAUUUCAUUACCGUGUACCUUUCCCAU | 0.625 |
| GUCAGCUGACUUAAAAUGUUUGUGACUUUCCUGUAAGGGCAGCCAGGGAUAAAAGUAUCCUUUGUUCAAUGAGUAGAAAACUAGAUUAUCUAUUAAUAUUUAAGACCAGG | 0.39 |
| GGGAAUGGAAUACAGAGCCCAAGCAAUGAGGAGCAGGCAAAGCCAGCCUCCCAGCAGGACAACAAAUGGAGGUCCAUCUAUCUUUGUCACCAAGCUGAGGUGUCUGAAGC | 0.462 |
| UGAAACAAACUCCAGGCCCUUUGUUGCCAGUGGCUGGGCCUAAGGGUUGCCCCGGGACCGUGCUCAGCUGCUCUGCAUGCCCUGUCCUACUGACAGGUACCUUAGUUCUG | 3.13 |
| CAUUUCAAGAAAUUACAGACUUCAUUAAAGGUGUAAAUUAAAGUGGCUUGCCAAAAACGAGGAACUGAGUUAUGUUUCUGAUGACAACUGUCCUUUAUUUCCUAUCCUCU | 0.302 |
| CUUGGGAAGUUUUGUUGGGUCAAGAAGAGAGAACUCUGUUCUCGCACCACCGGGAUCUGUCCUGCAAAGUUGAAGGGAUCCUUUGGUGCCAGCUGGUGUUUGGAAGUAGG | 0.813 |
| CUGGAAAGCGGCCAAGUUCAUCUUCUCACUGUGAGUGGAAGCUGGAUCGGGCCCCCGUAGUCCUGGCAGCCCUGUUGUCUGGAGGGUUCUUGUUGUCCCUCCCAUUAGCC | 0.355 |
| UAACACGGGAUUUUAAAAAAUAUGCUCUCUCUCUCUCUGCUCUCUCUCUCUCUCUAAAUUUGGAUAUAUUUUCUUCCCAAAUUGAAUAUUUCCUUUGUUUAACUCCCCCC | 1.61 |
| UCAUGAAUGUGCUGGUGAACACUGUGACCAGGCUUUUGUAGAUGGCGAUGUGUUAUAGACGGUGCUCACUCCCAAGGGACAGCAAGUGAGCAGAGAUGUACUGCAAAGUC | 2.81 |
| CAUGACUUUUAAGUAUUUUUUUAUAAACAGCUCAAUAUAAAACAUAGACAGUGUUUGAUUAUUUUCCUUGUGUAAGUUUGAUUUAAAACGUUGGAAAUGUGUGCUUUUUA | 0.403 |
